Assay results gathered from unrelated publications.
Each line is one published result; not all experiments were run side by side. ± marks the error that the study gave.
ache: Acetylcholinesterase (ache, Electrophorus electricus, UniProt O42275)
UniProt O42275, sequence (whole entry, looked up): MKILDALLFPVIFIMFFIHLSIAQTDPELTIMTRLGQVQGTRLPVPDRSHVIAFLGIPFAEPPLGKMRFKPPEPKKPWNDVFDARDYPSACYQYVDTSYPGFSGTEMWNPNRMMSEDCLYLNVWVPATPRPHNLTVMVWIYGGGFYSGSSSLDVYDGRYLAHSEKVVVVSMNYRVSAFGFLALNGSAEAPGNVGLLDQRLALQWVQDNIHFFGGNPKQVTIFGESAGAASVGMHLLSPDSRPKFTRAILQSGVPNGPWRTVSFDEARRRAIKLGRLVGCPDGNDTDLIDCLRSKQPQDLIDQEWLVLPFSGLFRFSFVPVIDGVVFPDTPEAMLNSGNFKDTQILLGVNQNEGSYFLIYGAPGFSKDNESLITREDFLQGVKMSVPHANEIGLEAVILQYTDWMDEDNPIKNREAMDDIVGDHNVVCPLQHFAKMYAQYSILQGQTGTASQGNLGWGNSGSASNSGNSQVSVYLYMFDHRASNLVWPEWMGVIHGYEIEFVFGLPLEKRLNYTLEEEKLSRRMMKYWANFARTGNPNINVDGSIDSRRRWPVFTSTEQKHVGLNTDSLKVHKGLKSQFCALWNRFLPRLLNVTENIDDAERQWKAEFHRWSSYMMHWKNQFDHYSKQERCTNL
UniProt P25929, sequence (whole entry, looked up): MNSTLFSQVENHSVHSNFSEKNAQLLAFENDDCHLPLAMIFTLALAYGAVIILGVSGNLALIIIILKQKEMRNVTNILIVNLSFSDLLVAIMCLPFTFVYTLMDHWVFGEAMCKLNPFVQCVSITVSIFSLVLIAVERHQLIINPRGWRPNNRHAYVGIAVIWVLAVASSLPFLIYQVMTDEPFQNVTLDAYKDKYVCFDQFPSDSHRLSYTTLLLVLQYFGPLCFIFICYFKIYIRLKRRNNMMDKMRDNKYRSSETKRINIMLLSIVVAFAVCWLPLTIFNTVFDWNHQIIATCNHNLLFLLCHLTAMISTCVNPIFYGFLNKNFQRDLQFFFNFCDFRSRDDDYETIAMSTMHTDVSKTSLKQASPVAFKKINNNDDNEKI
UniProt P49137, sequence (whole entry, looked up): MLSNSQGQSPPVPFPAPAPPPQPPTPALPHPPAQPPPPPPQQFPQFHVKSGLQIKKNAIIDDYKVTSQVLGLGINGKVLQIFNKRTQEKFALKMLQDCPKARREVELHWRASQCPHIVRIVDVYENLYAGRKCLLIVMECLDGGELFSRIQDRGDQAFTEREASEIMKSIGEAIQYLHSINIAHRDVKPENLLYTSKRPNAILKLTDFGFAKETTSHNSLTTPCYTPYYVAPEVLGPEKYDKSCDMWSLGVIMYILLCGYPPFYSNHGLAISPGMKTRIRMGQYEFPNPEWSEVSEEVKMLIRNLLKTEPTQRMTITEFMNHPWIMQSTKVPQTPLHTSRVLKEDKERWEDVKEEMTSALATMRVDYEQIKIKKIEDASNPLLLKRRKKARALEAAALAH
UniProt P36897, sequence (whole entry, looked up): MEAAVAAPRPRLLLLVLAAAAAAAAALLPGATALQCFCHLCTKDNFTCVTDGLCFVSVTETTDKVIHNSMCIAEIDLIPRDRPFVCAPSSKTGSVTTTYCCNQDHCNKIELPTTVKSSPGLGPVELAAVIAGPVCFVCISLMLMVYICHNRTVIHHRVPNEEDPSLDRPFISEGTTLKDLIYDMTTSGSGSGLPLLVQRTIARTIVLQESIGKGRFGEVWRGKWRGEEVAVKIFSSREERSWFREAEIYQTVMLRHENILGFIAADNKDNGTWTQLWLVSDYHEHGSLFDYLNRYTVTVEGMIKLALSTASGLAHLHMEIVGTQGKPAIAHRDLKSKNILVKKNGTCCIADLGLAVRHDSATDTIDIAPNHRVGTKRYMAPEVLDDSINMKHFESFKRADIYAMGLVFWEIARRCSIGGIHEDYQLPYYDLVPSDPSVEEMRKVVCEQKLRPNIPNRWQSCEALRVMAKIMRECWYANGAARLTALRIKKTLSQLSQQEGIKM
UniProt P06241, sequence (whole entry, looked up): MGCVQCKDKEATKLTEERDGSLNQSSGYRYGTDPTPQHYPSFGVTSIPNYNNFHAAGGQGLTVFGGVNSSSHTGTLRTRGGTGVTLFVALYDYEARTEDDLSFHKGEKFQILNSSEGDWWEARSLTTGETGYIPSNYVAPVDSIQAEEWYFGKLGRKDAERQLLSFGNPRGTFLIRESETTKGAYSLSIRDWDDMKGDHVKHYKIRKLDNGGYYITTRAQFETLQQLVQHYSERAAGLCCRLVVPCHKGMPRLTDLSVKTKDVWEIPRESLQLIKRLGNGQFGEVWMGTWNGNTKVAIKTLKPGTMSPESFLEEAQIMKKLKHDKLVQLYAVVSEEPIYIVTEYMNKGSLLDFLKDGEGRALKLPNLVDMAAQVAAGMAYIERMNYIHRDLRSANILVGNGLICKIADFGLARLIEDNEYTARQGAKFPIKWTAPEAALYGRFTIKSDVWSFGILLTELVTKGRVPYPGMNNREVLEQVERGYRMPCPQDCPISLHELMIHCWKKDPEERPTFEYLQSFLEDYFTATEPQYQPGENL
UniProt Q13882, sequence (whole entry, looked up): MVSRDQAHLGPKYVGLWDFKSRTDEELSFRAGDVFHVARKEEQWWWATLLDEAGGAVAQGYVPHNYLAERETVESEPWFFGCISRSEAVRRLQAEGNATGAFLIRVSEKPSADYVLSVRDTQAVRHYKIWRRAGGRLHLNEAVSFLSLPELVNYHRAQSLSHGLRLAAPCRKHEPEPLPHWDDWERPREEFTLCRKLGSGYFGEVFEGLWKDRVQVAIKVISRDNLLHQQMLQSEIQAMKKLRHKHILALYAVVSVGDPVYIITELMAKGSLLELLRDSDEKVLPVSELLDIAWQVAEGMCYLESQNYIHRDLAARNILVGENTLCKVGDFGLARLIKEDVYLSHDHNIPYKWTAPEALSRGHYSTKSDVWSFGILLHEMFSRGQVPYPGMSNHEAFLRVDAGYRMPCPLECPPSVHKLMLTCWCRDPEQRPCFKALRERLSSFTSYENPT
UniProt O13828, sequence (whole entry, looked up): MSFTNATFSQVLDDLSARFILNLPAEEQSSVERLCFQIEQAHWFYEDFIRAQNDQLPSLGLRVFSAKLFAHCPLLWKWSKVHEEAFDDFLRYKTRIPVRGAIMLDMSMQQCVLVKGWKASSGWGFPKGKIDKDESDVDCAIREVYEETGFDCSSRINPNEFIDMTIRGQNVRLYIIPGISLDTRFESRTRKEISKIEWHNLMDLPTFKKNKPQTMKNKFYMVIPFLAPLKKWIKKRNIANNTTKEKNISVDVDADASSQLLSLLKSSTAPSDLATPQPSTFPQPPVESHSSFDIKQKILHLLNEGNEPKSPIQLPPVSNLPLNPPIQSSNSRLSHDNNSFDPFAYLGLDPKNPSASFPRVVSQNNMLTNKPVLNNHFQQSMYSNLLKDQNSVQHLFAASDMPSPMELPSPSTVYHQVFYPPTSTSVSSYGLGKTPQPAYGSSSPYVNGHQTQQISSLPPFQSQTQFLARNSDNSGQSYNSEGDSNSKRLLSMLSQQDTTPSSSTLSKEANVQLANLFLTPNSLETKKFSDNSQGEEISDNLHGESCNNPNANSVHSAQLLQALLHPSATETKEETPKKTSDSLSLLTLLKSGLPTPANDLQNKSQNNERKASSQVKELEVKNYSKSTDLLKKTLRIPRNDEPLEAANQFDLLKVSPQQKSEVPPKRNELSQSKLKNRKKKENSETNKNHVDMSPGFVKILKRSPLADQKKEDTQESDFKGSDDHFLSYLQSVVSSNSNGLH
UniProt P23458, sequence (whole entry, looked up): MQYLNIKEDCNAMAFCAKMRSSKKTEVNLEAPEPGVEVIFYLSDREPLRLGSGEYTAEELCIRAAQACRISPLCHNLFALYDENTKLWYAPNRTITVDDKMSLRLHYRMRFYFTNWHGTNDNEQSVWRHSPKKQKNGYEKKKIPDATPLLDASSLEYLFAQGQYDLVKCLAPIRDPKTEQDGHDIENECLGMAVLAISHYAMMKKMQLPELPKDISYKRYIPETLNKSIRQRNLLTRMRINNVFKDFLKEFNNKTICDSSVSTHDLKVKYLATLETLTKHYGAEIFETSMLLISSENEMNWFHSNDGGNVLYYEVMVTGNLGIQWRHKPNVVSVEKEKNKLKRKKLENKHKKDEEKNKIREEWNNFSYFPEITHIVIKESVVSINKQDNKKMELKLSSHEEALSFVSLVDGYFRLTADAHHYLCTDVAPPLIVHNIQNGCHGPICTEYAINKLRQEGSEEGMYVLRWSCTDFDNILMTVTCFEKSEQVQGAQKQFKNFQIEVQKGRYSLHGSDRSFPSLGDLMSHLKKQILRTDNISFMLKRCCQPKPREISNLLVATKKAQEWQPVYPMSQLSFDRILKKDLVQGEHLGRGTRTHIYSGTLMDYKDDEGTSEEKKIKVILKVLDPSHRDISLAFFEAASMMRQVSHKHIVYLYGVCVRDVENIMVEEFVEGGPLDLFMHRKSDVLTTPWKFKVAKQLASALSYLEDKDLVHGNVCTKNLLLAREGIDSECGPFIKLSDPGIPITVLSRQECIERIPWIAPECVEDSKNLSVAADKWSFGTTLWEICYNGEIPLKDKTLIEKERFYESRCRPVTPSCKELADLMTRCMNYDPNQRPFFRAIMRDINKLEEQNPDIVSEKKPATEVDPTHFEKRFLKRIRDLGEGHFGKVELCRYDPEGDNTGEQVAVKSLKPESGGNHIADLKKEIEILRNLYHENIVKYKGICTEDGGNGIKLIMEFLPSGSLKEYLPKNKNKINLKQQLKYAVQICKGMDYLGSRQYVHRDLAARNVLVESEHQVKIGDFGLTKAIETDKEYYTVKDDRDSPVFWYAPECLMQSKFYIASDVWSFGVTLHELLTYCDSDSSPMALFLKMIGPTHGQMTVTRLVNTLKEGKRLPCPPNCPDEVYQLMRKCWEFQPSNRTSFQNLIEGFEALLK

| SMILES | target | test | conditions | inhibition |
| --- | --- | --- | --- | --- |
| CC(C)[C@H]1NC(=O)C[C@H]2/C=C/CCSSC[C@@H](NC1=O)C(=O)N[C@H](Cc1cccc3ccccc13)C(=O)NCC(=O)O2 | Tyrosine-protein kinase Fyn, isoform b (FYN, Homo sapiens, UniProt P06241) |  | 10 µM | 2.3% |
| CCc1cccc(CC)c1-n1cc(CCS(=O)(=O)F)nn1 | ache |  | 20 µM | 5.3 ± 0.7% |
| CN(C)[C@H]1C[C@@]23CC[C@@]4(O2)C(=CC[C@]2(C)[C@@H](c5ccc6ccncc6c5)CC[C@H]24)C=C3[C@@H](O)[C@@H]1O | PI4K2A (Homo sapiens, UniProt Q9BTU6) | ATP probe labelling, inhibitor, KiNativ profiling | 0.1 µM | 0.1% |
| C[n+]1cn([C@@H]2O[C@H](COP(=O)([O-])OP(=O)(O)O)[C@@H](O)[C@H]2O)c2nc(N)nc(O)c21 | mRNA decapping complex subunit 2, with Dcp1 (dcp2, Schizosaccharomyces pombe, UniProt O13828) |  | 200 µM, 0.25 h | 8.5 ± 4% |
| O=C(NC1CCN(c2ncnc3[nH]cnc23)CC1)c1cccc(NS(=O)(=O)c2ccc(C(F)(F)F)cc2)c1 | Replicase polyprotein 1ab, nsp14 (Human coronavirus OC43, UniProt P0C6X6) | enzyme activity | 0.01221 µM | 6.41% |
| CCc1nc2ccc(C(=O)NCCN3CCOCC3)cn2c1N(C)C(=O)C1CCCCC1 | ache | enzyme activity, inhibitor, Ellman | 5 µM | 68.7% |
| CS(C)(=O)=Nc1ccc(-c2ccc(-c3nc4cc(O[C@@H]5CO[C@H]6[C@@H]5OC[C@H]6O)[nH]c4cc3F)cc2)cc1 | PTK6 (Homo sapiens, UniProt Q13882) | enzyme activity, inhibitor | 10 µM | -22% |
| CC(C)(C)c1cc2oc3c(c2c(/C=N/NC(=O)c2ccc(O)cc2O)c1O)CCCC3 | PDE6D (Homo sapiens, UniProt O43924) | enzyme activity, inhibitor | 5 µM | 35.4% |
| O=C(CN1CN(c2ccccc2)C2(CCN(C(=O)c3cnc4[nH]ncc4c3)CC2)C1=O)NCC(F)(F)F | Tyrosine-protein kinase JAK1, JH1 kinase domain (JAK1, Homo sapiens, UniProt P23458) | inhibitor | concentration not given | < 50% |
| CN[C@@H]1[C@H](O)[C@H](NC)[C@H]2O[C@]3(O)[C@H](O[C@@H]2[C@H]1O)O[C@H](C)C[C@H]3NC(=O)Cc1cc(Cl)ccn1 | NPY1R (Homo sapiens, UniProt P25929) | ligand displacement, radioligand | 10 µM | -7% |
| C[C@H](NCc1ccc(-c2ccc(C(F)(F)F)cc2)cc1)C(N)=O | MAPKAPK2 (Homo sapiens, UniProt P49137) | cell-free assay, competition with immobilised ligand | 1 µM | 21% |
| CN(/N=C/c1ccccc1C(=O)O)c1nc(-c2ccccc2Cl)cs1 | TGFBR1 (Homo sapiens, UniProt P36897) | enzyme activity, inhibitor | 1 µM | -8.98% |
